Measurements collected from several papers.
Each numbered part is a random draw from the data of one study; scales do not carry over between parts. Numbers after ± are the reported error.

Sample 1 — cell line: HEK293 cells; method: resazurin; time: 24 h
The CC50 of `CC[C@H](C)[C@H](NC(=O)[C@H](Cc1ccccc1)NC(=O)[C@H](CC(=O)O)NC(=O)[C@H](CCCCN)NC(=O)[C@H](C)NC(=O)[C@H](CCCCN)NC(=O)[C@H](CC(N)=O)NC(=O)[C@H](CC(C)C)NC(=O)[C@H](Cc1c[nH]c2ccccc12)NC(=O)[C@H](CCC(=O)O)NC(=O)[C@H](CCCCN)NC(=O)[C@@H](NC(=O)CNC(=O)[C@H](C)N)[C@@H](C)O)C(=O)N[C@@H](CCCCN)C(=O)N[C@@H](CCC(=O)O)C(=O)N[C@@H](CCCCN)C(=O)NCC(=O)N1CCC[C@H]1C(=O)NCC(=O)N[C@@H](CCSC)C(=O)N[C@@H](CC(C)C)C(=O)N[C@@H](CO)C(=O)N[C@@H](C)C(=O)N[C@@H](C)C(=O)N[C@@H](C)C(=O)N[C@@H](CC(N)=O)C(=O)N[C@@H](C)C(=O)N[C@@H](C)C(=O)N[C@@H](CC(C)C)C(=O)N[C@@H](CC(N)=O)C(=O)O` is reported as > 250 µM.
For `CC[C@H](C)[C@H](NC(=O)[C@H](Cc1ccccc1)NC(=O)[C@H](CC(=O)O)NC(=O)[C@H](CCCCN)NC(=O)[C@H](C)NC(=O)[C@H](CCCCN)NC(=O)[C@H](CC(N)=O)NC(=O)[C@H](CC(C)C)NC(=O)[C@H](Cc1c[nH]c2ccccc12)NC(=O)[C@H](CCC(=O)O)NC(=O)[C@H](CCCCN)NC(=O)[C@@H](NC(=O)CNC(=O)[C@H](C)N)[C@@H](C)O)C(=O)N[C@@H](CCCCN)C(=O)N[C@@H](CCC(=O)O)C(=O)N[C@@H](CCCCN)C(=O)NCC(=O)N[C@@H](CC(C)C)C(=O)NCC(=O)N[C@@H](CCSC)C(=O)N[C@@H](CC(C)C)C(=O)N[C@@H](CCCNC(=N)N)C(=O)N[C@@H](C)C(=O)N[C@@H](C)C(=O)N[C@@H](C)C(=O)N[C@@H](CC(N)=O)C(=O)N[C@@H](C)C(=O)N[C@@H](C)C(=O)N[C@@H](CC(C)C)C(=O)N[C@@H](CC(N)=O)C(=O)O`, the CC50 was > 100 µM.
`CC[C@H](C)[C@H](NC(=O)[C@H](Cc1ccccc1)NC(=O)[C@H](CC(=O)O)NC(=O)[C@H](CCCCN)NC(=O)[C@H](C)NC(=O)[C@H](CCCCN)NC(=O)[C@H](CC(N)=O)NC(=O)[C@H](CC(C)C)NC(=O)[C@H](Cc1c[nH]c2ccccc12)NC(=O)[C@H](CCC(=O)O)NC(=O)[C@H](CCCCN)NC(=O)[C@@H](NC(=O)CN)[C@@H](C)O)C(=O)N[C@@H](CCCCN)C(=O)N[C@@H](CCC(=O)O)C(=O)N[C@@H](CCCCN)C(=O)NCC(=O)N[C@@H](CC(C)C)C(=O)NCC(=O)N[C@@H](CCSC)C(=O)N[C@@H](CC(C)C)C(=O)N[C@@H](CO)C(=O)N[C@@H](C)C(=O)N[C@@H](C)C(=O)N[C@@H](C)C(=O)N[C@@H](CC(N)=O)C(=O)N[C@@H](C)C(=O)N[C@@H](C)C(=O)N[C@@H](CC(C)C)C(=O)N[C@@H](CC(N)=O)C(=O)O` has a CC50 of > 250 µM.

Sample 2 — species: Kunming mice both sexes; route: intraperitoneal; time: 7 days
With `C=CC12CN(C)C3C4COC(CC41)C1(C(=O)N(OC)c4ccccc41)C32` (stereo not shown) the LD50 was > 30 mg/kg.
`CCC1=NC2CC3(C(=O)N(OC)c4ccccc43)C3OCC2C1C3O` (stereo not shown) has an LD50 of 0.46 mg/kg.
The LD50 of `CC=C1CNC2CC3(C(=O)N(OC)c4ccccc43)C3CC1C2CO3` (stereo not shown) is reported as 0.21 mg/kg.
The LD50 of `CCC1=NC2CC3(C(=O)N(OC)c4ccccc43)C3OCC2C1(O)C3O` (stereo not shown) is reported as 3.59 mg/kg.
The LD50 of `CC=C1CN(C)C2CC3(C(=O)Nc4ccccc43)C3CC1C2CO3` (stereo not shown) is reported as > 30 mg/kg.

Mixed results
`CC(C)C[C@@H]1NC(=O)[C@H](CCCNC(=N)N)NC(=O)[C@@H]2CCCN2C(=O)[C@@H]2CSSC[C@H](NC(=O)CNC(=O)[C@@H]3CCCN3C(=O)[C@H](CCCCN)NC(=O)[C@H](CC(=O)O)NC(=O)[C@@H](NC(=O)CN)C(C)C)C(=O)N[C@@H](CCCNC(=N)N)C(=O)N[C@@H](Cc3ccc(O)cc3)C(=O)N[C@@H](CC(C)C)C(=O)N[C@@H](Cc3ccccc3)C(=O)NCC(=O)NCC(=O)N[C@H]3CSSC[C@H](NC(=O)CNC1=O)C(=O)N[C@@H](CCCCN)C(=O)NCC(=O)N[C@@H](CCCCN)C(=O)NCC(=O)N[C@@H](Cc1c[nH]cn1)C(=O)N[C@@H](CC(=O)O)C(=O)N[C@@H](Cc1ccc(O)cc1)C(=O)N[C@H](C(=O)N[C@@H](C)C(=O)N[C@@H](Cc1c[nH]c4ccccc14)C(=O)N[C@@H](CC(=O)O)C(=O)NCC(=O)N[C@H](C(=O)N[C@@H](Cc1ccccc1)C(=O)N[C@@H](CO)C(=O)N[C@@H](CC(=O)O)C(=O)O)[C@@H](C)O)CSSC[C@H](NC(=O)[C@H](CC(=O)O)NC(=O)[C@H](CC(=O)O)NC(=O)[C@H](CC(=O)O)NC(=O)[C@H](CO)NC(=O)[C@H](CCCCN)NC3=O)C(=O)N2` has a Hill slope of 1.4 (Potassium voltage-gated channel subfamily B member 1 (KCNB1, Homo sapiens, UniProt Q14721); channel current, inhibitor, automated patch clamp; tsA201).
The Hill slope of `CC[C@H](C)[C@@H]1NC(=O)[C@H](CCCNC(=N)N)NC(=O)[C@H](CO)NC(=O)[C@H](CCC(=O)O)NC(=O)[C@H](CC(=O)O)NC(=O)CNC(=O)CNC(=O)[C@H]([C@@H](C)O)NC(=O)[C@H](Cc2ccccc2)NC(=O)[C@H](CO)NC(=O)[C@H]([C@@H](C)O)NC(=O)[C@H](C)NC(=O)[C@@H]2CSSC[C@@H](C(=O)N[C@@H](Cc3ccc(O)cc3)C(=O)N[C@@H](Cc3ccccc3)C(=O)N[C@H](C(=O)N[C@H](C(=O)NCC(=O)O)[C@@H](C)O)[C@@H](C)O)NC(=O)[C@H]([C@@H](C)O)NC(=O)[C@H](CSSC[C@H](NC(=O)[C@H](CCC(=O)O)NC(=O)[C@H](CO)NC(=O)[C@H](CCCCN)NC(=O)[C@H](Cc3ccc(O)cc3)NC(=O)[C@@H]3CCCN3C(=O)[C@H](Cc3ccccc3)NC(=O)[C@H](CCCCN)NC(=O)[C@H](CCCNC(=N)N)NC(=O)[C@H](CCCCN)NC(=O)[C@H](CCCCN)NC(=O)[C@H](Cc3ccc(O)cc3)NC(=O)[C@@H]3CCCN3C(=O)[C@@H](NC(=O)[C@H](CC(=O)O)NC(=O)[C@H](CCCCN)NC(=O)[C@H](CCCCN)NC(=O)[C@@H](NC(=O)[C@@H](NC(=O)[C@@H](N)CCC(=O)O)C(C)C)[C@@H](C)CC)[C@@H](C)O)C(=O)N[C@@H](CC(C)C)C(=O)N[C@@H](CCCCN)C(=O)N[C@@H](C)C(=O)N2)NC(=O)[C@H](CCCCN)NC(=O)[C@H](Cc2ccccc2)NC(=O)[C@H](Cc2ccccc2)NC(=O)CNC(=O)[C@@H]2CCCN2C(=O)[C@H](CCCCN)NC(=O)CNC(=O)[C@H](CCC(=O)O)NC(=O)[C@H](CCC(N)=O)NC1=O` is reported as 1.74 ± 0.04 (Potassium voltage-gated channel subfamily KQT member 1 (KCNQ1, Homo sapiens, UniProt P51787); ion current, patch clamp).

Excerpt of the above (mixed results):
The Hill slope of `CC[C@H](C)[C@@H]1NC(=O)[C@H](CCCNC(=N)N)NC(=O)[C@H](CO)NC(=O)[C@H](CCC(=O)O)NC(=O)[C@H](CC(=O)O)NC(=O)CNC(=O)CNC(=O)[C@H]([C@@H](C)O)NC(=O)[C@H](Cc2ccccc2)NC(=O)[C@H](CO)NC(=O)[C@H]([C@@H](C)O)NC(=O)[C@H](C)NC(=O)[C@@H]2CSSC[C@@H](C(=O)N[C@@H](Cc3ccc(O)cc3)C(=O)N[C@@H](Cc3ccccc3)C(=O)N[C@H](C(=O)N[C@H](C(=O)NCC(=O)O)[C@@H](C)O)[C@@H](C)O)NC(=O)[C@H]([C@@H](C)O)NC(=O)[C@H](CSSC[C@H](NC(=O)[C@H](CCC(=O)O)NC(=O)[C@H](CO)NC(=O)[C@H](CCCCN)NC(=O)[C@H](Cc3ccc(O)cc3)NC(=O)[C@@H]3CCCN3C(=O)[C@H](Cc3ccccc3)NC(=O)[C@H](CCCCN)NC(=O)[C@H](CCCNC(=N)N)NC(=O)[C@H](CCCCN)NC(=O)[C@H](CCCCN)NC(=O)[C@H](Cc3ccc(O)cc3)NC(=O)[C@@H]3CCCN3C(=O)[C@@H](NC(=O)[C@H](CC(=O)O)NC(=O)[C@H](CCCCN)NC(=O)[C@H](CCCCN)NC(=O)[C@@H](NC(=O)[C@@H](NC(=O)[C@@H](N)CCC(=O)O)C(C)C)[C@@H](C)CC)[C@@H](C)O)C(=O)N[C@@H](CC(C)C)C(=O)N[C@@H](CCCCN)C(=O)N[C@@H](C)C(=O)N2)NC(=O)[C@H](CCCCN)NC(=O)[C@H](Cc2ccccc2)NC(=O)[C@H](Cc2ccccc2)NC(=O)CNC(=O)[C@@H]2CCCN2C(=O)[C@H](CCCCN)NC(=O)CNC(=O)[C@H](CCC(=O)O)NC(=O)[C@H](CCC(N)=O)NC1=O` is reported as 1.74 ± 0.04 (Potassium voltage-gated channel subfamily KQT member 1 (KCNQ1, Homo sapiens, UniProt P51787); ion current, patch clamp).
